Values quoted from earlier work, collected from citations in different studies.
Lines come from different studies, so protocols differ.

Compound	organism	test	system	setting	IC50
C[N+]1=C2C=C(NCCc3ccc(O)cc3)C(=O)c3[nH]cc(c32)CC1	Plasmodium falciparum	parasite growth	Dd2, multidrug-resistant		< 0.05 µM
CCCCCN(C)CCC(O)(P(=O)(O)O)P(=O)(O)O	Plasmodium falciparum	parasite growth			> 70 µM
C#CCCCCCC(=O)N(C)[C@H](C(=O)N(C)[C@H](C(=O)N(C)[C@H](C(=O)N(C)[C@@H](C)C(=O)N(C)[C@@H](Cc1ccccc1)C(=O)OC)C(C)C)C(C)C)C(C)C	Leishmania donovani				> 14 µM
Cc1ccc(C(=O)c2oc3ccc4c(C)cc(=O)oc4c3c2C)cc1	Trypanosoma cruzi		Tulahuen C4 LacZ		> 32 µM
CC(=O)N(O)CCCP(=O)(O)O	Plasmodium falciparum	parasite growth	3D7	range reported	0.09 to 0.35 µM
COCCNCC(O)Cn1c2ccc(Cl)cc2c2cc(Cl)ccc21 (stereo not drawn)	Trypanosoma cruzi		Tulahuen C4 LacZ		3.9 µM
C#CCCCCCC(=O)N(C)[C@H](C(=O)N(C)[C@H](C(=O)N(C)[C@H](C(=O)N(C)[C@@H](C)C(=O)N(C)[C@@H](Cc1ccccc1)C(=O)N(C)C)C(C)C)C(C)C)C(C)C	Leishmania donovani				5.9 µM
Cc1cc(CCCOc2c(C)cc(-c3noc(C(F)(F)F)n3)cc2C)on1	Enterovirus	viral replication	clinical isolates		≤ 0.03 µM
Cn1c(=O)n(C)c2cc(CNCCNc3ccnc4cc(Cl)ccc34)ccc21	Trypanosoma cruzi		Tulahuen C4 LacZ		16.9 µM
C#CCCCCC(=O)N(C)[C@H](C(=O)N(C)[C@H](C(=O)N(C)[C@H](C(=O)N(C)[C@@H](C)C(=O)N(C)[C@@H](Cc1ccccc1)C(=O)OC)C(C)C)C(C)C)C(C)C	Leishmania donovani				> 14 µM
CCOc1cccc(C(=O)Nc2ccc(-c3nc4ccccc4[nH]3)cc2)c1	Trypanosoma cruzi		Tulahuen C4 LacZ		> 32 µM
Cc1cc2nc(N)[nH]c2cc1C	Pseudomonas aeruginosa	biofilm growth, inhibitor	wild type	24 h	4 µM

Repeated from above:
Compound	organism	test	system	setting	IC50
C#CCCCCCC(=O)N(C)[C@H](C(=O)N(C)[C@H](C(=O)N(C)[C@H](C(=O)N(C)[C@@H](C)C(=O)N(C)[C@@H](Cc1ccccc1)C(=O)N(C)C)C(C)C)C(C)C)C(C)C	Leishmania donovani				5.9 µM
Cc1ccc(C(=O)c2oc3ccc4c(C)cc(=O)oc4c3c2C)cc1	Trypanosoma cruzi		Tulahuen C4 LacZ		> 32 µM
